Experimental data of several laboratories.
A part holds a random share of what one study measured.
Chain of UniProt Q8IY84 (whole entry, looked up): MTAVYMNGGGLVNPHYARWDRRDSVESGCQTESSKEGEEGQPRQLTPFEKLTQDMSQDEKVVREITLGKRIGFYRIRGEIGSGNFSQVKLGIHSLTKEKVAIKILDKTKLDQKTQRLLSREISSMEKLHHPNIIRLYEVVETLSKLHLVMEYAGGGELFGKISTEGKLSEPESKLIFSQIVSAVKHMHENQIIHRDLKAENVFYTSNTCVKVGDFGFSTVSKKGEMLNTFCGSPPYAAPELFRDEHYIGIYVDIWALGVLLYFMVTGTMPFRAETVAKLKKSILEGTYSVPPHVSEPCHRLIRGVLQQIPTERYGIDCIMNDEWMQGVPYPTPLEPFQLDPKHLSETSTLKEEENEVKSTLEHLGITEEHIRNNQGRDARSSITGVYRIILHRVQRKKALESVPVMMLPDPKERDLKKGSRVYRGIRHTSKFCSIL
Chain of UniProt P07333 (whole entry, looked up): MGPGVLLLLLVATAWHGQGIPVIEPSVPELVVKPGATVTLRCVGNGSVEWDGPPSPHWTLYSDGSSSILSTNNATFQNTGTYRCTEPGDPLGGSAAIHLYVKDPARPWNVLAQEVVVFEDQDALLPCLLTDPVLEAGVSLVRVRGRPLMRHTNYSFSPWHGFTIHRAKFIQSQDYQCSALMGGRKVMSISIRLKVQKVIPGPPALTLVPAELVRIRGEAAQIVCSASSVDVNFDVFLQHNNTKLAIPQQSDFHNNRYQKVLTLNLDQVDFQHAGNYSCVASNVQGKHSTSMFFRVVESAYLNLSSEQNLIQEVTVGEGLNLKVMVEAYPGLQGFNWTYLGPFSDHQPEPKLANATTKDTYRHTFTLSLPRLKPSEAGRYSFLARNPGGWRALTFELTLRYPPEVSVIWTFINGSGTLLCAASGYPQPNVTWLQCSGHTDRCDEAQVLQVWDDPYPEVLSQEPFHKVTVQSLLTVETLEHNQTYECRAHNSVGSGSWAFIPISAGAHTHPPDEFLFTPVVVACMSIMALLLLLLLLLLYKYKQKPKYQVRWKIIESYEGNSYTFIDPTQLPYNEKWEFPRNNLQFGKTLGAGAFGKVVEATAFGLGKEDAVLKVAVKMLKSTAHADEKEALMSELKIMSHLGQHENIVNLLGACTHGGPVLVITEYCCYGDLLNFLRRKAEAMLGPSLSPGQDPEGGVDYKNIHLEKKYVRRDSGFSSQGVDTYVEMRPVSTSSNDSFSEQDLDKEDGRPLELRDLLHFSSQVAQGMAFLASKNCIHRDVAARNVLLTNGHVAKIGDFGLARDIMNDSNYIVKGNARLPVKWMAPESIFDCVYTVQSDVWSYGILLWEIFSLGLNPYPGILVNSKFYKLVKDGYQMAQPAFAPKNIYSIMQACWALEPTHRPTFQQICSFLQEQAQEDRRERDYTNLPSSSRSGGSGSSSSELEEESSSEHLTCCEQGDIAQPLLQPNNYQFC
Chain of UniProt Q02156 (whole entry, looked up): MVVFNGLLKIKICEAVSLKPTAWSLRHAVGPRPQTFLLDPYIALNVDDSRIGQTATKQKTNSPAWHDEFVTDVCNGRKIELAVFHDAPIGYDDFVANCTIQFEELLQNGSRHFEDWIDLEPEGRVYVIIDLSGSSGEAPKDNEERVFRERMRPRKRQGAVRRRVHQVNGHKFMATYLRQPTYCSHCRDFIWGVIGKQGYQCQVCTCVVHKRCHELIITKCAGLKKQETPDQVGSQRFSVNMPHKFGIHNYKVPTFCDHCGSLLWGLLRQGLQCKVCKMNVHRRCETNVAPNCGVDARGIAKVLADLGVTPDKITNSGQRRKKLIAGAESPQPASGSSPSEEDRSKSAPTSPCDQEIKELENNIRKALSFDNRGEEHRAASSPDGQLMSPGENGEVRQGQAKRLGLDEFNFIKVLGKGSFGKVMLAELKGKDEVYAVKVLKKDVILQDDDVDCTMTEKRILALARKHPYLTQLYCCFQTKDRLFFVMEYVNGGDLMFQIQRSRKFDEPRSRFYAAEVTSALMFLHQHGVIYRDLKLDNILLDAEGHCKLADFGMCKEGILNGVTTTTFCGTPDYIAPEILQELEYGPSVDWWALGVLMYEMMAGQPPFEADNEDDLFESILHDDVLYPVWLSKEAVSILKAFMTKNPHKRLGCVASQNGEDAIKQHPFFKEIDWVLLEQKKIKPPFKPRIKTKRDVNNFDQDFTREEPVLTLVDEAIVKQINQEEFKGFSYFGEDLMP
Chain of UniProt P49759 (whole entry, looked up): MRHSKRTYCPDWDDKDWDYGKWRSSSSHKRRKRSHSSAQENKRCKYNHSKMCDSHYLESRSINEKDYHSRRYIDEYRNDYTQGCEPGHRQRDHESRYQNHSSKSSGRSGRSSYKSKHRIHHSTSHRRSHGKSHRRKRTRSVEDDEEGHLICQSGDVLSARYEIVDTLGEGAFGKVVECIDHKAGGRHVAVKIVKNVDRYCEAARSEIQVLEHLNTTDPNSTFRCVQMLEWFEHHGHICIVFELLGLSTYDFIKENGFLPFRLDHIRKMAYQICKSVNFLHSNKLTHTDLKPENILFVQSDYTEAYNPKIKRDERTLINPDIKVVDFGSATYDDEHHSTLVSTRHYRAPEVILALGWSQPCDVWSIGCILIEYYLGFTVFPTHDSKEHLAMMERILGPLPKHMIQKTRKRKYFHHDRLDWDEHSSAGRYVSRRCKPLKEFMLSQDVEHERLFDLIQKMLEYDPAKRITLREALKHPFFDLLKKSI
Chain of UniProt O15075 (whole entry, looked up): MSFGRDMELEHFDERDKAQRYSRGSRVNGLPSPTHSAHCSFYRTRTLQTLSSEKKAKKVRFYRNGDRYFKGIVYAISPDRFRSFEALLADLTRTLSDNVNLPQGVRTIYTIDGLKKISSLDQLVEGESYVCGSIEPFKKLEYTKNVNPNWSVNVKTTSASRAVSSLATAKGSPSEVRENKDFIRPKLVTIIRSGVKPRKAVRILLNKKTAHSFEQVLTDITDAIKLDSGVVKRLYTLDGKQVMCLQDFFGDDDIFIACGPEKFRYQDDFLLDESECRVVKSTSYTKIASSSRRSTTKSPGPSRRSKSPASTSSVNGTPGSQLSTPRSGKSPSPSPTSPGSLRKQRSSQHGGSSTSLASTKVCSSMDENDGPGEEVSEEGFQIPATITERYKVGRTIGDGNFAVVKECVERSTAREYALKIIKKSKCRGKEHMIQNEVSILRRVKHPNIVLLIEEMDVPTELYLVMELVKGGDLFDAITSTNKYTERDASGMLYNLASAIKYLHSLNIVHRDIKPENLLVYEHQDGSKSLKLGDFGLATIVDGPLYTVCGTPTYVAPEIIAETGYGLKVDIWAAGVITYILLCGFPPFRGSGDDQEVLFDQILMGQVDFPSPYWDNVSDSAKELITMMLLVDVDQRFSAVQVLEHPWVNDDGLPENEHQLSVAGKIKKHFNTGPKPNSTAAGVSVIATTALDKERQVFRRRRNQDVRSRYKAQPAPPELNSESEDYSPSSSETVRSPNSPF
Chain of UniProt P25098 (whole entry, looked up): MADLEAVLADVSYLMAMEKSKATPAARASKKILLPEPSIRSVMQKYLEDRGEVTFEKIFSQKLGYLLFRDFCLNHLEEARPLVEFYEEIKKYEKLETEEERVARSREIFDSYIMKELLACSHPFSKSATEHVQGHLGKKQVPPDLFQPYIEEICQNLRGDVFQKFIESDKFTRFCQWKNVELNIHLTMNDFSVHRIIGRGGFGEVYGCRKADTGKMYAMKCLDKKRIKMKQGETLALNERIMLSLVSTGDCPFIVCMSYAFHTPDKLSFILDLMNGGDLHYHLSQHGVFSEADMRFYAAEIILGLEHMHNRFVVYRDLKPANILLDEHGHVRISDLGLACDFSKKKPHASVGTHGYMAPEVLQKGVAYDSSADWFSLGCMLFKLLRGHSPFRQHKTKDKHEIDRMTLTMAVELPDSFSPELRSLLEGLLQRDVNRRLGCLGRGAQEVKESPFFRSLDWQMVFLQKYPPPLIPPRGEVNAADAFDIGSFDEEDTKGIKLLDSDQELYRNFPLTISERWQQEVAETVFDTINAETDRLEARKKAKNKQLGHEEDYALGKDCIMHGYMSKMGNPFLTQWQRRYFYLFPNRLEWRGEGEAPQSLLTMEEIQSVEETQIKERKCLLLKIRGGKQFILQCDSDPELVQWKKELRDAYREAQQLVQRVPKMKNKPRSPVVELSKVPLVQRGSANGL
Chain of UniProt P49840 (whole entry, looked up): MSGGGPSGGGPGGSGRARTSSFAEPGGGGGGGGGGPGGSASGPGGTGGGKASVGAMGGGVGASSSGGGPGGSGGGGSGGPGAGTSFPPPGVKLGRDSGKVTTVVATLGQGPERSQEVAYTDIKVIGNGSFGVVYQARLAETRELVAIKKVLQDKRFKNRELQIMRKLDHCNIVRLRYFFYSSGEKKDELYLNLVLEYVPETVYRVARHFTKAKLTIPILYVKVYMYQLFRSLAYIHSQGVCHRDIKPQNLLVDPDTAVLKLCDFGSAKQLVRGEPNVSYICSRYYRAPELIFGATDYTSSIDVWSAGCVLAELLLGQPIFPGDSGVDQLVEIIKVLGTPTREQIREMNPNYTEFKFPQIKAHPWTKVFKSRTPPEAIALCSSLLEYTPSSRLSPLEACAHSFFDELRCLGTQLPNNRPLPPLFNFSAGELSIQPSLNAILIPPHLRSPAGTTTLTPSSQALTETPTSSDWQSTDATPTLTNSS

Series 1
Structure (SMILES): O=c1nc(-c2ccccn2)sc2ccccc12
Method: competition with immobilised ligand
Concentration: 1 µM
target | test | remaining binding
BMP-2-inducible protein kinase (BMP2K, Homo sapiens, UniProt Q9NSY1) | binding | 86%
Serine/threonine-protein kinase NLK (NLK, Homo sapiens, UniProt Q9UBE8) | binding | 100%
Epidermal growth factor receptor (EGFR, Homo sapiens, UniProt P00533, del747-752/P753S) | cell-free assay | 100%
Mitogen-activated protein kinase 7 (MAPK7, Homo sapiens, UniProt Q13164) | binding | 100%
Dual specificity protein kinase CLK1 (CLK1, Homo sapiens, UniProt P49759) | binding | 99%
Serine/threonine-protein kinase DCLK1 (DCLK1, Homo sapiens, UniProt O15075) | binding | 90%
Serine/threonine-protein kinase Nek11 (NEK11, Homo sapiens, UniProt Q8NG66) | binding | 100%
Serine/threonine-protein kinase TAO3 (TAOK3, Homo sapiens, UniProt Q9H2K8) | binding | 73%
ALK tyrosine kinase receptor (ALK, Homo sapiens, UniProt Q9UM73, C1156Y) | cell-free assay | 100%
Ephrin type-B receptor 2 (EPHB2, Homo sapiens, UniProt P29323) | cell-free assay | 100%
Tyrosine-protein kinase ABL1, non-phosphorylated (ABL1, Homo sapiens, UniProt P00519, Q252H) | binding | 96%
Cyclin-dependent kinase 11A (CDK11A, Homo sapiens, UniProt Q9UQ88) | binding | 94%
Mitogen-activated protein kinase 6 (MAPK6, Homo sapiens, UniProt Q16659) | binding | 73%
Serine/threonine-protein kinase NIM1 (NIM1K, Homo sapiens, UniProt Q8IY84) | binding | 100%
Receptor-type tyrosine-protein kinase FLT3 (FLT3, Homo sapiens, UniProt P36888, D835V) | binding | 100%

Series 2
SMILES: COc1cc2ncc(-c3ccccc3)nc2cc1OC
Observed: enzyme activity
Mode: inhibitor
Concentration: 0.5 µM
Baseline: control
target | remaining activity [%]
Ribosomal protein S6 kinase alpha-1 (RPS6KA1, Homo sapiens, UniProt Q15418) | 88.4
Protein kinase C epsilon type (PRKCE, Homo sapiens, UniProt Q02156) | 87.9
G protein-coupled receptor kinase 6 (GRK6, Homo sapiens, UniProt P43250) | 92.8
Beta-adrenergic receptor kinase 1 (GRK2, Homo sapiens, UniProt P25098) | 95.8
Glycogen synthase kinase-3 alpha (GSK3A, Homo sapiens, UniProt P49840) | 97.9
Serine/threonine-protein kinase Sgk1 (SGK1, Homo sapiens, UniProt O00141) | 88.5
Serine/threonine-protein kinase PAK 2 (PAK2, Homo sapiens, UniProt Q13177) | 85.6
Ribosomal protein S6 kinase beta-1 (RPS6KB1, Homo sapiens, UniProt P23443) | 89
NUAK family SNF1-like kinase 1 (NUAK1, Homo sapiens, UniProt O60285) | 85.6
Serine/threonine-protein kinase pim-2 (PIM2, Homo sapiens, UniProt Q9P1W9) | 101
Protein kinase C gamma type (PRKCG, Homo sapiens, UniProt P05129) | 101
Tyrosine-protein kinase CSK (CSK, Homo sapiens, UniProt P41240) | 107
Receptor-type tyrosine-protein kinase FLT3 (FLT3, Homo sapiens, UniProt P36888) | 65.9
Macrophage colony-stimulating factor 1 receptor (CSF1R, Homo sapiens, UniProt P07333) | 88.2

Series 3
Target: Centromere-binding protein 1, full length, His-tagged (CBF1, Saccharomyces cerevisiae, UniProt P17106, residues 1-351)
Chain of UniProt P17106 (whole entry, looked up): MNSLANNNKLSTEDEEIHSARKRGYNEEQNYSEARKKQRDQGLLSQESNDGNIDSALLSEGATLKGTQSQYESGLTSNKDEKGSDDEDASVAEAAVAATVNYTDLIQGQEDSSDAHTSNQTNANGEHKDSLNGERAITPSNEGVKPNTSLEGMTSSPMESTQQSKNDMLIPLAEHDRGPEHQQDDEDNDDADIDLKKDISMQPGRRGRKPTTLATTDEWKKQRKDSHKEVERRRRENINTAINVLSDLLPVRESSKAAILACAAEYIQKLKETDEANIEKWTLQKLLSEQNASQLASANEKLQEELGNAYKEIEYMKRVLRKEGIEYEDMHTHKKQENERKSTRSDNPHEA
Method: competition protein-binding microarray
Molecule type: double-stranded DNA, one strand shown
Medium: in vitro
Concentration: 2 µM
Setting: whole 60-bp probe, lowest competitor level
With: Pho4 competitor, 0.05 µM
Reading: higher = stronger binding
Constant ends, left off below: … GTCTTGATTCGCTTGACGCTGCTG
Sequence | fluorescence intensity
CCTGCAAAGCAATGCAACGTGGGCCTGTGAGGATGA | 78.3 a.u.
CTTCTGTAAATTTGTCACGTCACTTGACGCGCCCCG | 175 a.u.
TGCGCAACAACTTGTCACTATACTTTATGTCTAGAA | 67.8 a.u.
AGCGACTATATTTTGCACGCTCTTAAAGCAGCCACC | 86.3 a.u.
CGAACGTAGCTTCGTCACATGCTATGCTAGCAACTA | 696 a.u.
GTAGAGCAGGATGATCCCGTGCCAGAACTGGATATC | 360 a.u.
ACAAGGCTAAGGGCGCACATGTGTGGGACCCGGAGG | 98.5 a.u.
CTTCTGTAAATTTGGACTGTGGGTGGACGCGCCCCG | 84.2 a.u.

Single results of other studies
Method: cross-linking MS
Molecule | partner | test system | setting | endpoint | result
TXNDC9 (Homo sapiens, UniProt O14530) | CCT3 (Homo sapiens, UniProt P49368) | cell fractions | with: DMTMM | cross-linked residues | K201 to E69
BMS1 (Homo sapiens, UniProt Q14692) | NAT10 (Homo sapiens, UniProt Q9H0A0) | cell fractions | with: DMTMM | cross-linked residues | K418 to D634
H2AC20 (Homo sapiens, UniProt Q16777) | H2BC9 (Homo sapiens, UniProt Q93079) |  | hits only | interaction screen | cross-linked
EIF4A3 (Homo sapiens, UniProt P38919) | ACIN1 (Homo sapiens, UniProt Q9UKV3) | cell fractions | with: DSSO | cross-linked residues | K296 to K1047

For quick reference, copied from above (series 3):
Sequence | fluorescence intensity
CCTGCAAAGCAATGCAACGTGGGCCTGTGAGGATGA | 78.3 a.u.
CTTCTGTAAATTTGTCACGTCACTTGACGCGCCCCG | 175 a.u.
TGCGCAACAACTTGTCACTATACTTTATGTCTAGAA | 67.8 a.u.
